Assay results collected from several papers.
Lines come from different studies, so protocols differ. Numbers after ± are the reported error.
Sample: plasma
Route: oral

| Structure (SMILES) | method | species | dose | time | setting | measurement | value |
| --- | --- | --- | --- | --- | --- | --- | --- |
| Cc1ccc(NC(=O)c2ccc(CN3CCN(C)CC3)cc2)cc1Nc1nccc(-c2cncc(-c3oncc3C)c2)n1 |  | older healthy human adults | 75.0 mg single dose |  | fed, mean | half-life | 28.5 h |
| CCCCC1(CCCC)CN(c2ccccc2)c2cc(SC)c(OCC(=O)N[C@@H](C(=O)NCC(=O)O)c3ccccc3)cc2S(=O)(=O)C1 | LC-MS/MS | human | 20 mg |  | single dose, before breakfast | half-life | 4.18 h |
| CN(C)Cc1c(C(=O)NCCOc2ccc(C(=O)NO)cc2)oc2ccccc12 |  | human | 40 mg |  | single dose on day -3 | half-life (median) | 2.56 h |
| O=CC[C@@H](O)[C@H](O)[C@H](O)CO | HPLC-fluorescence | human patients | 45 mg/kg/day |  | cycle 1 | half-life | 7.3 ± 1.6 h |
| CN(C)C/C=C/C(=O)Nc1cc2c(Nc3ccc(F)c(Cl)c3)ncnc2cc1O[C@H]1CCOC1 |  | human | 20 mg once daily | day 27 | geometric mean | half-life at steady state | 48.4 h |
| Cc1nc(-c2ccc(OCC(C)C)c(C#N)c2)sc1C(=O)O |  | human adults | 10 to 160 mg once daily |  | fed, PopPK post hoc | half-life at steady state | 7.98 ± 0.97 h |
| CNC(=O)c1ccc(-c2cnc3ncc(Cc4ccc5ncccc5c4)n3n2)cc1F |  | human, normal hepatic function | 200 mg single dose |  |  | half-life (mean) | 12 h |
| COc1ccc(-c2ccc3c(N4CCOC[C@@H]4C)nc(N4CCOC[C@@H]4C)nc3n2)cc1CO |  | human | 20 mg twice daily |  | oral solution | half-life at steady state | 1.7 h |

A few entries again:
| Structure (SMILES) | method | species | dose | time | setting | measurement | value |
| --- | --- | --- | --- | --- | --- | --- | --- |
| CN(C)Cc1c(C(=O)NCCOc2ccc(C(=O)NO)cc2)oc2ccccc12 |  | human | 40 mg |  | single dose on day -3 | half-life (median) | 2.56 h |
